{"data": "Published values collected from several papers", "target": "Alpha-glucosidase MAL12 (MAL12, Saccharomyces cerevisiae S288c, UniProt P53341)", "note": "Each line is one published result; not all experiments were run side by side. Numbers after ± are the reported error.", "sequence of UniProt P53341 (whole entry, looked up)": "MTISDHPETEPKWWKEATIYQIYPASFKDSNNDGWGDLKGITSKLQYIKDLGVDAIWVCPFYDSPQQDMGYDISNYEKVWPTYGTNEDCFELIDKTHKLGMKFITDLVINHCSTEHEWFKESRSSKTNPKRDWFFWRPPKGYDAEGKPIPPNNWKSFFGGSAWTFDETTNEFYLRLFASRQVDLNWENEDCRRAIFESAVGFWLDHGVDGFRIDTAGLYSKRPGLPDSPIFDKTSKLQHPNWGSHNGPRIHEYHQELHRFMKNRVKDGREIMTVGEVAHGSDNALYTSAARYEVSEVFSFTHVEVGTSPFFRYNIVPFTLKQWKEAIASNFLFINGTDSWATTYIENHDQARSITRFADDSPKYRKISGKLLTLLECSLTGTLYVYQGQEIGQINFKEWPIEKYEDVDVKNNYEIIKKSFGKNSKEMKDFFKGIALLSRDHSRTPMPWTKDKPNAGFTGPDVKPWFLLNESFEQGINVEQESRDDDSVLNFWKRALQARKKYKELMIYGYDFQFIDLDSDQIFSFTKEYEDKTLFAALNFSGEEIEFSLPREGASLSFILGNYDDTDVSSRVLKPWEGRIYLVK"}
{"SMILES": "O=C1C(=O)N(CCOc2ccc(F)cc2)c2ccc(Cl)cc21", "assay": "enzyme activity, inhibitor", "IC50 [µM]": 25.7}
{"SMILES": "C[C@H]1[C@H](C)CC[C@]2(C(=O)O)CC[C@]3(C)C(=CCC4[C@@]5(C)CCC(=O)C(C)(C)C5CC[C@]43C)[C@H]12 (some centres unmarked)", "assay": "enzyme activity, inhibitor", "IC50 [µM]": 82.7}
{"SMILES": "O=C1C(=O)N(CCOc2ccc(Br)cc2)c2ccc(Cl)cc21", "assay": "enzyme activity, inhibitor", "IC50 [µM]": 21.9}
{"SMILES": "O=C(O)c1ccc(O)c(O)c1", "assay": "enzyme activity, inhibitor, absorbance", "IC50 [µM]": "> 100"}
{"SMILES": "CN(C)c1ccc(C(=N/N=C/c2ccc(Cl)cc2Cl)c2ccc(N(C)C)cc2)cc1", "assay": "enzyme activity, inhibitor", "conditions": "pH 6.8, 37 °C, together with: p-nitrophenyl alpha-D-glucopyranoside", "IC50 [µM]": "0.77 ± 0.64"}
{"SMILES": "OC[C@H]1O[C@@H](Oc2cc3c(O)cc(O)cc3[o+]c2-c2cc(O)c(O)c(O)c2)[C@H](O)[C@@H](O)[C@@H]1O", "IC50 [µM]": "364 ± 15.2"}
{"SMILES": "CN(C)c1ccc(C(=N/N=C/c2ccc3ccccc3c2)c2ccc(N(C)C)cc2)cc1", "assay": "enzyme activity, inhibitor", "conditions": "pH 6.8, 37 °C, together with: p-nitrophenyl alpha-D-glucopyranoside", "IC50 [µM]": "0.43 ± 2.39"}
{"SMILES": "O=c1c(-c2ccc(O)cc2)coc2c(Cn3cccn3)c(O)ccc12", "assay": "enzyme activity, inhibitor", "conditions": "pH 6.8", "IC50 [µM]": "16.2 ± 3.4"}
{"SMILES": "C=C1C(=O)O[C@@H]2[C@H]3C(CO)=CC(=O)C3=C(C)C[C@H](OC(=O)Cc3ccc(O)cc3)[C@@H]12", "assay": "enzyme activity, inhibitor, absorbance", "IC50 [µM]": 17.7}
{"SMILES": "COc1ccc(-c2c(C(F)(F)F)oc3c(Cn4ccnc4)c(O)ccc3c2=O)cc1", "assay": "enzyme activity, inhibitor", "conditions": "pH 6.8", "IC50 [µM]": "20 ± 2"}
{"SMILES": "COc1cc2c(cc1OC)-c1cc3ccc(OC)c(OC)c3c[n+]1CC2", "assay": "enzyme activity, inhibitor", "IC50 [µM]": 640}
{"SMILES": "O=C(/C=C/c1ccc(O)c2c1[C@H](C(=O)O[C@H](Cc1ccc(O)c(O)c1)C(=O)O)[C@@H](c1ccc(O)c(O)c1)O2)O[C@H](Cc1ccc(O)c(O)c1)C(=O)O", "assay": "enzyme activity, inhibitor", "system": "Saccharomyces cerevisiae", "IC50 [µM]": "> 100"}
{"SMILES": "CN(C)c1ccc(/C=N/N=C(c2ccc(N(C)C)cc2)c2ccc(N(C)C)cc2)cc1", "assay": "enzyme activity, inhibitor", "conditions": "pH 6.8, 37 °C, together with: p-nitrophenyl alpha-D-glucopyranoside", "IC50 [µM]": "0.51 ± 1.84"}
{"SMILES": "CCCCCCSc1nc2ccccc2n1CC(=O)NN1C(=O)CSC1c1ccc(C(C)C)cc1 (centres unmarked)", "assay": "enzyme activity, inhibitor, absorbance", "IC50 [µM]": 65}
{"SMILES": "C=CC1C(OC2OC(CO)C(O)C(O)C2O)OC=C2C(=O)OC(OC)CC21 (centres unmarked)", "assay": "enzyme activity, inhibitor", "conditions": "together with: p-nitrophenyl glucoside", "IC50 [µM]": "> 100"}
{"SMILES": "COc1ccc(/C=N/N=C(c2ccc(N(C)C)cc2)c2ccc(N(C)C)cc2)cc1", "assay": "enzyme activity, inhibitor", "conditions": "pH 6.8, 37 °C, together with: p-nitrophenyl alpha-D-glucopyranoside", "IC50 [µM]": "0.94 ± 2.21"}
{"SMILES": "C=CC1C(OC2OC(CO)C(O)C(O)C2O)OC=C(C(=O)OC)C1CC(OC)OCC1OC(OC2OC=C(C(=O)O)C3CCC(C)C23)C(O)C(O)C1O (centres unmarked)", "assay": "enzyme activity, inhibitor, absorbance", "IC50 [µM]": "> 100"}
{"SMILES": "O=C1C(=O)N(CCOc2ccccc2)c2ccc(Cl)cc21", "assay": "enzyme activity, inhibitor", "IC50 [µM]": 7.87}
{"SMILES": "O=C1O[C@H](c2ccc(O)cc2)Cc2cc(O)cc(O)c21", "assay": "enzyme activity, inhibitor, absorbance", "IC50 [µM]": "> 100"}
{"SMILES": "O=C1C(=O)N(CCOc2ccc(Cl)cc2)c2ccc(Br)cc21", "assay": "enzyme activity, inhibitor", "IC50 [µM]": 5.32}
{"SMILES": "O=C(O)c1c(O)cccc1CC(OC1OC(CO)C(O)C(O)C1O)c1ccc(O)cc1 (centres unmarked)", "assay": "enzyme activity, inhibitor, absorbance", "IC50 [µM]": "> 100"}
{"SMILES": "COc1cc(/C=N/N=C(c2ccc(N(C)C)cc2)c2ccc(N(C)C)cc2)cc(OC)c1OC", "assay": "enzyme activity, inhibitor", "conditions": "pH 6.8, 37 °C, together with: p-nitrophenyl alpha-D-glucopyranoside", "IC50 [µM]": "0.36 ± 2.69"}
{"SMILES": "CC1=CC(=O)OC2(C)CC(O)CC(C)(C(=O)O)C2(O)C=C1 (centres unmarked)", "assay": "enzyme activity, inhibitor, absorbance", "IC50 [µM]": "> 100"}
{"SMILES": "Cc1cccc(/C=C/C(=O)c2cnn(-c3ccccc3)c2C)c1", "assay": "inhibitor", "IC50 [µM]": 394}
{"SMILES": "O=Cc1ccc(O)c(O)c1", "assay": "enzyme activity, inhibitor", "system": "Saccharomyces cerevisiae", "IC50 [µM]": "> 100"}
{"SMILES": "O=C1O[C@H](c2ccc(O)cc2)Cc2cccc(O)c21", "assay": "enzyme activity, inhibitor, absorbance", "IC50 [µM]": 43.8}
{"SMILES": "O=C1C(=O)N(CCOc2ccc(F)cc2)c2ccc(Br)cc21", "assay": "enzyme activity, inhibitor", "IC50 [µM]": 22.2}
{"SMILES": "O=c1ccc2cc(O[C@@H]3O[C@H](CO)[C@@H](O)[C@H](O)[C@H]3O)c(O[C@@H]3O[C@H](CO)[C@@H](O)[C@H](O)[C@H]3O)cc2o1", "assay": "enzyme activity, inhibitor, absorbance", "IC50 [µM]": "> 100"}
{"SMILES": "O=C1C(=O)N(CCOc2ccc(F)cc2)c2ccccc21", "assay": "enzyme activity, inhibitor", "IC50 [µM]": 150}
{"note": "Excerpt of the above:"}
{"SMILES": "O=C1C(=O)N(CCOc2ccc(F)cc2)c2ccc(Br)cc21", "assay": "enzyme activity, inhibitor", "IC50 [µM]": 22.2}
